Measured values of several laboratories.
Each line is one published result; not all experiments were run side by side.

Cc1ncc([N+](=O)[O-])n1CCO — EC50 (Escherichia coli expressing YdgI_Bs nitroreductase; growth inhibition, substrate, OD600; 4 h): 88.6 µM
CN(C)CCOc1ccc(-c2nc(-c3ccncc3)c(-c3ccc4c(c3)CC/C4=N\O)[nH]2)cc1 — EC50 (451Lu-R3 BRAF inhibitor resistant; cell viability; 72 h, single agent): 5.97 µM
CCn1cc(-c2cc(Cn3ccnc3)cc3c2CCN([C@H](c2cc(OC)ccn2)C2CC2)C3=O)c(C(F)(F)F)n1 — EC50 (HEC59; cell growth; 120 h): 1.21 µM
CC(=O)C1=C(C)Nc2sc(C(=O)c3ccc(Cl)c(Cl)c3)c(N)c2C1c1cccnc1 (centres unmarked) — EC50 (BV-2; phagocytosis, high-content imaging; geometric mean, added: pHrodo-myelin uptake): 33 µM
CC(ONC(=O)c1cc(C(F)(F)F)cc(C(F)(F)F)c1)C(=O)Nc1ccc(Cl)cc1 (centres unmarked) — EC50 (PH5CH8; steatosis inhibition, high-content imaging; 72 h, added: sodium oleate 1 mM): 5.21 µM
CCn1cc(-c2cc(Cn3ccoc3=N)cc3c2CCN([C@@H](C)c2cc(OC)ccn2)C3=O)c(C(F)(F)F)n1 — EC50 (HEC-1-A; cell growth, inhibitor; 120 h): > 30 µM
Clc1ccc(COc2cncc(-c3cnn(C4CCNCC4)c3)c2)c(Cl)c1 — EC50 (BV-2; phagocytosis, high-content imaging; geometric mean, added: pHrodo-myelin uptake): 1.94 µM
CN(C)C/C=C/C(=O)Nc1ccc(C(=O)Nc2cccc(Nc3ncc(Cl)c(-c4c[nH]c5ccccc45)n3)c2)cc1 — EC50 (PH5CH8; steatosis inhibition, high-content imaging; 72 h, added: sodium oleate 1 mM): 0.969 µM
C[C@]12CCCN1CC1=NNC(=O)c3cc(F)cc4[nH]c2c1c34 — EC50 (SW480 colorectal cancer cells; cell viability; concentration not given, added: with temozolomide): > 3 µM
COc1cnc2cccc(N3CCc4c(cc(Cn5ccnc5C)cc4-c4cn(C)nc4C(F)(F)F)C3=O)c2c1 — EC50 (SU-DHL10; cell growth, inhibitor; 120 h): 0.065 µM
O=C(Cc1ccccc1)Nc1nnc(CCSCCc2nnc(NC(=O)Cc3ccccc3)s2)s1 — EC50 (BT-474; cell proliferation, inhibitor, cell counting; 144 h): ~20 µM

A few entries again:
O=C(Cc1ccccc1)Nc1nnc(CCSCCc2nnc(NC(=O)Cc3ccccc3)s2)s1 — EC50 (BT-474; cell proliferation, inhibitor, cell counting; 144 h): ~20 µM
Cc1ncc([N+](=O)[O-])n1CCO — EC50 (Escherichia coli expressing YdgI_Bs nitroreductase; growth inhibition, substrate, OD600; 4 h): 88.6 µM
